Earlier results, collected from citations in different studies.
Lines come from different studies, so protocols differ. ± marks the error that the study gave.
Sequence of UniProt P33261 (whole entry, looked up): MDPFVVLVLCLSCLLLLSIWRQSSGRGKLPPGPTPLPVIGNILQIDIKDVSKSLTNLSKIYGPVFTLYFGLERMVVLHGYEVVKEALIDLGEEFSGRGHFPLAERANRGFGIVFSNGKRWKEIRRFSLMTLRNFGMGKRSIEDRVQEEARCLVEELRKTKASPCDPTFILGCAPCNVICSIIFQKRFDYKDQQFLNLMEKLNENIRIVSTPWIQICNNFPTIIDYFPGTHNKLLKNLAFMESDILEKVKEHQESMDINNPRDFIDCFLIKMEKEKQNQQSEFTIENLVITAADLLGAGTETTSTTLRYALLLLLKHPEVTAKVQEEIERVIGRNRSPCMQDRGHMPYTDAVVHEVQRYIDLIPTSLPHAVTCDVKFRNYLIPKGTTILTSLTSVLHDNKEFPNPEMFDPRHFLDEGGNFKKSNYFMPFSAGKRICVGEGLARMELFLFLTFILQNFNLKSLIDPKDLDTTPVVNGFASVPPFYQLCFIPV
Sequence of UniProt P05177 (whole entry, looked up): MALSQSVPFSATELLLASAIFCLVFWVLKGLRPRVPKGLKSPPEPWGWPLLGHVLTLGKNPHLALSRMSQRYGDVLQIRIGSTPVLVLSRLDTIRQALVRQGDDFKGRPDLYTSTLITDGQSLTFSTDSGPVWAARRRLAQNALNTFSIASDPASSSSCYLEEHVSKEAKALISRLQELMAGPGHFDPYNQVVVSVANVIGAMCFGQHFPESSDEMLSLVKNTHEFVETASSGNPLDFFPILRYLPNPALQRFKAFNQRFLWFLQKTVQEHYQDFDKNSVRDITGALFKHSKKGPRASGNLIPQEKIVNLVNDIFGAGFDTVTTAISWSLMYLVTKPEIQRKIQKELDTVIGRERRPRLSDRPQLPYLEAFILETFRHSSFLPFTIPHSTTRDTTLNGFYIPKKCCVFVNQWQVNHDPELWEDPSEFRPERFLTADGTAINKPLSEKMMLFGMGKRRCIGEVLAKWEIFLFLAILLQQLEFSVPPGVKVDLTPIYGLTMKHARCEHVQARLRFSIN

SMILES	tested on	test	system	setting	quantity	value
O=C1c2ccccc2-c2c1c1ccc([N+](=O)[O-])cc1c(=O)n2C[C@H](O)CO	HOP-62	cell growth	lung cancer	–	GI50	0.089 µM
CC(=O)O[C@H]1C2=C(C(=O)C(OC(=O)c3ccc(C)cc3)=C(C(C)C)C2=O)[C@@]2(C)CCCC(C)(C)[C@@H]2[C@@H]1O	MEL1	–	–	–	GI50	5 to 10 µM
CN1CCN(c2cc(-c3ccccc3CO)c(N(C)C(=O)C(C)(C)c3cc(C(F)(F)F)cc(C(F)(F)F)c3)cn2)CC1	–	–	cancer patients, plasma	oral, dose not given, netupitant-palonosetron fixed combination, together with: etoposide 35-100 mg/m^2 IV	AUC(0-inf)	5290 ng·h/mL
CC(C)C1=C(O)C(=O)C2=C(C1=O)[C@H](O)[C@@H](O)[C@H]1C(C)(C)CCC[C@]21C	MCF7	cell growth	–	–	GI50	10 to 30 µM
COc1ccc(Nc2nccc(-c3c[nH]nc3-c3cccnc3)n2)cc1	CYP2C19 (Homo sapiens, UniProt P33261)	–	–	10 µM	inhibition	30%
CC(=O)O[C@H]1C2=C(C(=O)C(O)=C(C(C)C)C2=O)[C@@]2(C)CCCC(C)(C)[C@@H]2[C@@H]1OC(=O)c1ccc([N+](=O)[O-])cc1	MOLT-3	–	–	–	GI50	≤ 5 µM
C=C[C@@H]1C[C@]1(NC(=O)[C@@H]1C[C@@H](Oc2cc(-c3ccccc3)nc3cc(OC)ccc23)CN1C(=O)[C@@H](NC(=O)OC(C)(C)C)C(C)(C)C)C(=O)NS(=O)(=O)C1CC1	–	–	dog	intravenous, dose not given	clearance	16 mL/min/kg
Cc1ccccc1-c1cc(N2CC[N+](C)([O-])CC2)ncc1N(C)C(=O)C(C)(C)c1cc(C(F)(F)F)cc(C(F)(F)F)c1	–	–	healthy volunteers, plasma	oral, 450 mg, single dose, together with: palonosetron 0.75 mg	Cmax	219 ng/mL
COCCOCCOCCOCCC(=O)NCc1cc(CNC(=O)CCOCCOCCOCCOC)cc(-c2cc3cc4nc(c(OC)c5[nH]c(cc6nc(cc2[nH]3)CC6(C)C)cc5-c2cc(CNC(=O)CCOCCOCCOCCOC)cc(CNC(=O)CCOCCOCCOCCOC)c2)CC4(C)C)c1	–	–	DMF	room temperature	integrated Qy/B absorption ratio	0.53
Cc1ccccc1-c1cc(N2CCNCC2)ncc1N(C)C(=O)C(C)(C)c1cc(C(F)(F)F)cc(C(F)(F)F)c1	–	–	cancer patients, plasma	oral, dose not given, netupitant-palonosetron fixed combination, together with: cyclophosphamide 500-1000 mg/m^2 IV	AUC(0-inf)	5990 ng·h/mL
CCCC(=O)O[C@@H]1[C@@H](OC(C)=O)C2=C(C(=O)C(O)=C(C(C)C)C2=O)[C@@]2(C)CCCC(C)(C)[C@H]12	MOLT-3	–	–	–	GI50	≤ 5 µM
CC(=O)N1CCC(NC(=O)NC23CC4CC(C)(CC(C2)c2ccccc24)C3)CC1	Cytochrome P450 1A2 (CYP1A2, Homo sapiens, UniProt P05177)	–	–	10 µM	inhibition	9 ± 1%
O=C1c2ccccc2-c2c1c1ccc([N+](=O)[O-])cc1c(=O)n2C[C@H](O)[C@@H](O)[C@H](O)[C@H](O)CO	SF-539	cell growth	–	CNS cancer panel	GI50	2.61 µM
CC(C)(C)C1=CC(=NNC(=O)c2ccncc2)C=C(C(C)(C)C)C1=O	Salmonella typhimurium	Ames test	TA100	concentration not given	mutagenicity	negative
CC(=O)O[C@H]1C2=C(C(=O)C(O)=C(C(C)C)C2=O)[C@@]2(C)CCCC(C)(C)[C@@H]2[C@@H]1O	TK-10	cell growth	–	–	GI50	5 to 10 µM
Cc1cc(N2CC[C@](C#N)(C3(C)CC3)C2=O)cc(C(=O)NCc2cc(F)cc(-c3cnn(C)c3)c2)n1	MDA-MB-231	–	–	–	CC50	> 2 µM
